{"data": "Results pooled from the literature", "note": "Lines come from different studies, so protocols differ. “And” joins repeats or separate records; there may be more than shown. Numbers after ± are the reported error."}
{"Compound": "CCCCN1C[C@H](O)[C@@H](O)[C@@H](O)[C@H]1CO", "target or system": "sample H patient fibroblasts", "assay": "GlcCer level lowering, LC-MS/MS, item: GlcCer d18:1/16:0", "conditions": "216 h", "endpoint": "IC50", "result": "15100 nM"}
{"Compound": "N#Cc1ccc(C[C@@H](Nc2nnc(-c3ccc(F)cc3)o2)C(=O)N2CCc3ccccc32)cc1", "target or system": "human neutrophils", "assay": "calcium mobilization, desensitization", "conditions": "added: standard agonist", "endpoint": "IC50", "result": "> 50000 nM"}
{"Compound": "COc1cc(N2CCC(N3CCN(C)CC3)CC2)ccc1Nc1ncc(Cl)c(Nc2ccccc2P(C)(C)=O)n1", "target or system": "Ba/F3 EML4-ALK v1", "assay": "cell viability", "endpoint": "IC50", "result": "109 nM"}
{"Compound": "O=c1c(O)c(-c2cc(O)c(O)c(O)c2)oc2cc(O)cc(O)c12", "target or system": "SV-HUC-1", "assay": "cell growth, CellTiter-Glo", "conditions": "72 h", "endpoint": "IC50", "result": "> 200000 nM"}
{"Compound": "Cc1ccc(-c2nnc(N[C@@H](Cc3ccc(C#N)cc3)C(=O)N3CCc4ccccc43)o2)cc1", "target or system": "human neutrophils", "assay": "calcium mobilization, desensitization", "conditions": "added: standard agonist", "endpoint": "IC50", "result": "> 50000 nM"}
{"Compound": "CC[C@@]1([C@@H]2O[C@@H]([C@H]3O[C@@](O)(CO)[C@H](C)C[C@@H]3C)C[C@@H]2C)CC[C@H]([C@]2(C)CC[C@]3(C[C@H](O)[C@@H](C)[C@@H]([C@@H](C)[C@@H](OC)[C@H](C)C(=O)O)O3)O2)O1", "target or system": "MCF-10A", "assay": "cell viability", "conditions": "72 h", "endpoint": "IC50", "result": "221 ± 102 nM"}
{"Compound": "NC(=O)NOCCCCCCCCCC[P+](c1ccccc1)(c1ccccc1)c1ccccc1", "target or system": "mouse myeloid-derived suppressor cells", "assay": "suppressive neutrophil differentiation, flow cytometry", "endpoint": "IC50", "result": "> 20000 nM"}
{"Compound": "O=C(Nc1ccncc1)c1cc([N+](=O)[O-])ccc1Cl", "target or system": "Toxoplasma gondii", "assay": "parasite growth", "system": "HFF, bradyzoite, alkaline-induced", "endpoint": "EC50", "result": "1920 nM"}
{"Compound": "COc1cc2c(Oc3ccc(NC(=O)C4(C(=O)Nc5ccc(F)cc5)CC4)cc3F)ccnc2cc1OCCCN1CCOCC1", "target or system": "Rh36 (embryonal rhabdomyosarcoma)", "assay": "cell growth", "conditions": "3 days", "endpoint": "IC50", "result": "660 ± 90 nM"}
{"Compound": "C[C@@H]1CN(C(=O)c2ccc(NC(=O)c3cc(O[C@H](C)c4c(Cl)ccc(F)c4Cl)c(N)nn3)cc2)C[C@H](C)N1", "target or system": "NCI-H2228 (EML4-ALK variant 3)", "assay": "cell viability", "endpoint": "IC50", "result": "8.77 nM"}
{"Compound": "Cc1c(C(=O)O)ccc2c3n(nc12)[C@@H]1[C@H](C3)N(CC2CC2)[C@@]2(C(=O)Nc3cc(Cl)ccc32)[C@H]1c1cccc(Cl)c1F", "target or system": "highly sensitive cancer cell lines", "assay": "cell viability, PRISM pooled screen", "conditions": "range, sensitivity above 0.5", "endpoint": "IC50", "result": "4.6 to 204 nM"}
{"Compound": "N#Cc1ccc(C[C@H](Nc2c(Nc3ccc(Br)cc3)c(=O)c2=O)C(=O)N2CCc3ccccc32)cc1", "target or system": "human neutrophils", "assay": "calcium mobilization, desensitization", "conditions": "added: standard agonist", "endpoint": "IC50", "result": "1200 ± 300 nM"}
{"Compound": "COc1ncnc(C2CC2)c1-c1ncc2cnn(Cc3ccc(-c4nc(C(F)(F)F)cn4C(C)C)cc3)c2n1", "target or system": "CHP-212 parental", "assay": "cell viability, SRB", "endpoint": "IC50", "result": "39100 nM and 38500 nM and 50200 nM"}
{"Compound": "CC1(C)CCC(CN2CCN(c3ccc(C(=O)NS(=O)(=O)c4ccc(NCC5CCOCC5)c([N+](=O)[O-])c4)c(Oc4cnc5[nH]ccc5c4)c3)CC2)=C(c2ccc(Cl)cc2)C1", "target or system": "AML blasts, primary, RUNX1-mutated", "assay": "blast expansion", "conditions": "7 days, HUVEC co-culture", "endpoint": "IC50", "result": "82 nM"}
{"Compound": "CCc1oc2ccccc2c1C(=O)c1cc(Br)c(O)c(Br)c1", "target or system": "HEK-293T cells expressing URAT1", "assay": "urate uptake, inhibitor", "conditions": "30-60 min, 37 °C, added: 10 µM [14C]-urate", "endpoint": "IC50", "result": "21.5 nM"}
{"Compound": "NC(=O)NOCCCCCCCCCCCCCCCCCCCC[P+](c1ccccc1)(c1ccccc1)c1ccccc1", "target or system": "mouse myeloid-derived suppressor cells", "assay": "suppressive neutrophil differentiation, flow cytometry", "endpoint": "IC50", "result": "> 1000 nM"}
{"Compound": "Cc1cc(Nc2ncc(Cl)c(Nc3ccccc3S(=O)(=O)C(C)C)n2)c(OC(C)C)cc1C1CCNCC1", "target or system": "Ba/F3 EML4-ALK v1", "assay": "cell viability", "endpoint": "IC50", "result": "267 nM"}
{"Compound": "COc1cccc2c1C(=O)c1c(O)c3c(c(O)c1C2=O)C[C@@](O)(C(=O)CO)C[C@@H]3O[C@H]1C[C@H](N)[C@H](O)[C@H](C)O1", "target or system": "CHP-212 parental", "assay": "cell viability, SRB", "endpoint": "IC50", "result": "47.3 nM and 45.9 nM and 47 nM"}
{"Compound": "Cc1nn(-c2nc3c(F)cc(F)cc3s2)c(O)c1C(c1ccc(C(F)(F)F)cc1)c1c(C)nn(-c2nc3c(F)cc(F)cc3s2)c1O", "target or system": "RAW-ISG (mouse)", "assay": "IFN reporter gene, inhibitor, luciferase reporter", "conditions": "added: HT-DNA", "endpoint": "IC50", "result": "2670 nM"}
{"Compound": "Cc1nc(N(Cc2ccccc2)c2ccc3c(c2)/C(=C/c2ccccc2)C(=O)N3Cc2ccccc2)c2ccccc2n1 (mixture of isomers)", "target or system": "Lewis lung carcinoma", "assay": "cell viability, MTT", "endpoint": "IC50", "result": "2100 ± 140 nM"}
{"Compound": "N#Cc1ccc(C[C@H](NC(=O)c2cc3ccccc3[nH]2)C(=O)N2CCc3ccccc32)cc1", "target or system": "human neutrophils", "assay": "calcium mobilization, desensitization", "conditions": "added: standard agonist", "endpoint": "IC50", "result": "> 50000 nM"}
{"Compound": "Cc1ccc(C(=O)N(CCCN)[C@@H](c2oc3cc(Cl)ccc3c(=O)c2Cc2ccccc2)C(C)C)cc1", "target or system": "Toxoplasma gondii", "assay": "parasite growth, luciferase reporter", "system": "HFF, tachyzoite", "conditions": "72 h", "endpoint": "EC50", "result": "19200 nM"}
{"Compound": "C=CC(=O)N1CCC(COCC(=O)N2CCN(c3nc(-c4cnc(N)nc4C(F)F)nc(N4CCOC[C@@H]4C)n3)CC2)CC1", "target or system": "MDA-MB-453", "assay": "western blot, item: phospho-PKB/Akt Ser473", "conditions": "2 h", "endpoint": "IC50", "result": "9.2 nM"}
{"Compound": "CC(C)C[C@H](NC(=O)[C@H](Cc1ccccc1)NC(=O)c1cnccn1)B(O)O", "target or system": "CHP-212 parental", "assay": "cell viability, SRB", "endpoint": "IC50", "result": "4730 nM and 4100 nM and 6950 nM"}
{"Compound": "CCCS(=O)(=O)Nc1ccc(F)c(C(=O)c2c[nH]c3ncc(-c4ccc(Cl)cc4)cc23)c1F", "target or system": "primary keratinocytes", "assay": "ERK phosphorylation, Western blot", "conditions": "1 h", "endpoint": "IC50", "result": "> 30000 nM"}
{"Compound": "C=CC(=O)N1CCC[C@@H](n2nc(-c3ccc(Oc4ccccc4)cc3)c3c(N)ncnc32)C1", "target or system": "washed human platelets, healthy donors", "assay": "ATP secretion, inhibitor, luminescence", "conditions": "added: CRP 10 µg/mL", "endpoint": "IC50", "result": "250 nM"}
{"Compound": "C[C@H]1Oc2cc(cnc2N)-c2c(nn(C)c2C#N)CN(C)C(=O)c2ccc(F)cc21", "target or system": "Ba/F3 EML4-ALK variant 1 S1206Y", "assay": "cell viability", "endpoint": "IC50", "result": "2.2 nM"}
{"Compound": "C=CC(=O)Nc1cc(Nc2nccc(-c3cn(C)c4ccccc34)n2)c(OC)cc1N(C)CCN(C)C", "target or system": "Ba/F3 EGFR V769_D770insASV", "assay": "cell growth, CellTiter-Glo", "conditions": "72 h", "endpoint": "IC50", "result": "39.4 ± 8.56 nM"}
{"Compound": "COc1cc2c(cc1OC)-c1cc3ccc(OC)c(OCCN)c3c[n+]1CC2", "target or system": "Lewis lung carcinoma", "assay": "cell viability, MTT", "conditions": "72 h", "endpoint": "IC50", "result": "> 80000 nM"}
{"Compound": "COc1cc(O)cc(/C=C/c2cccc(O)c2OC)c1", "target or system": "MDA-MB-231 breast cancer", "assay": "cell viability, MTT", "system": "DMEM with 10% FBS", "conditions": "48 h", "endpoint": "IC50", "result": "> 200000 nM"}
{"Compound": "CN1C(=O)CCC(N2Cc3c(C#CC4CCN(C(=O)[C@H]5CC[C@H](NC(=O)[C@@H]6NC7(CCCCC7)[C@@]7(C(=O)Nc8cc(Cl)ccc87)[C@H]6c6cccc(Cl)c6F)CC5)CC4)cccc3C2=O)C1=O (some centres unmarked)", "target or system": "RS4;11/MIR2", "assay": "cell growth, WST-8", "conditions": "4 days", "endpoint": "IC50", "result": "> 1000 nM"}
{"Compound": "N#Cc1ccc(C[C@H](Nc2nnc(-c3ccc(Br)cc3)o2)C(=O)N2CCc3ccccc32)cc1", "target or system": "human neutrophils", "assay": "calcium mobilization, desensitization", "conditions": "added: standard agonist", "endpoint": "IC50", "result": "7400 ± 2500 nM"}
{"Compound": "O=c1c(O[C@@H]2O[C@H](CO)[C@@H](O)[C@H](O)[C@H]2O)c(-c2ccc(O)cc2)oc2cc(O)cc(O)c12", "target or system": "T47D breast cancer", "assay": "cell viability, MTT", "system": "DMEM with 10% FBS", "conditions": "48 h", "endpoint": "IC50", "result": "> 200000 nM"}
{"Compound": "O=C(O)c1cccnc1Nc1cccc(C(F)(F)F)c1", "target or system": "HEK293A LATS1/2 double knockout", "assay": "TEAD reporter gene, GTIIC luciferase", "conditions": "24 h", "endpoint": "IC50", "result": "145000 nM"}
{"Compound": "N#Cc1ccc(C[C@H](Nc2ncc(-c3ccc(F)cc3)o2)C(=O)N2CCc3ccccc32)cc1", "target or system": "human neutrophils", "assay": "calcium mobilization, desensitization", "conditions": "added: standard agonist", "endpoint": "IC50", "result": "> 50000 nM"}
{"note": "A few entries again:"}
{"Compound": "Cc1ccc(-c2nnc(N[C@@H](Cc3ccc(C#N)cc3)C(=O)N3CCc4ccccc43)o2)cc1", "target or system": "human neutrophils", "assay": "calcium mobilization, desensitization", "conditions": "added: standard agonist", "endpoint": "IC50", "result": "> 50000 nM"}
{"Compound": "CC[C@@]1([C@@H]2O[C@@H]([C@H]3O[C@@](O)(CO)[C@H](C)C[C@@H]3C)C[C@@H]2C)CC[C@H]([C@]2(C)CC[C@]3(C[C@H](O)[C@@H](C)[C@@H]([C@@H](C)[C@@H](OC)[C@H](C)C(=O)O)O3)O2)O1", "target or system": "MCF-10A", "assay": "cell viability", "conditions": "72 h", "endpoint": "IC50", "result": "221 ± 102 nM"}
